Published values gathered from unrelated publications.
Protocols differ between the studies behind these lines. ± gives the spread as reported.

For `CCCC[C@H](NC(=O)CCCCCCCNC(=O)c1ccc(NN)nc1)C(=O)N[C@H]1CC(=O)NCCCC[C@@H](C(N)=O)NC(=O)[C@H](Cc2c[nH]c3ccccc23)NC(=O)[C@H](CCCNC(=N)N)NC(=O)[C@@H](Cc2ccccc2)NC(=O)[C@H](Cc2c[nH]cn2)NC1=O` [technetium-99m labelled], the uptake was 0.17 ± 0.07 %ID/g (C57 mouse, B16/F1 melanoma, brain; intravenous, 0.5 h).
For `CC[C@@]1(OC(=O)CCC(=O)NCCCC[C@H](NC(=O)[C@H](Cc2ccccc2)NC(=O)[C@H](Cc2ccccc2)NC(=O)CCSC2=C(/C=C/C3=[N+](C)c4ccccc4C3(C)C)CCC/C2=C\C=C2\N(C)c3ccccc3C2(C)C)C(=O)N[C@@H](CCCCNC(=O)CCCC[C@@H]2SC[C@@H]3NC(=O)N[C@@H]32)C(=O)O)C(=O)OCc2c1cc1n(c2=O)Cc2cc3ccccc3nc2-1`, “time to plateau tumour signal” read 24 h (fluorescence imaging; BALB/c nude mice with 4T1 tumour; intravenous, 0.05 µmol/kg).
For `CC[C@H]1CN2CCc3cc(OC)c(OC)cc3[C@@H]2C[C@@H]1C[C@@H]1c2cc(OC)c(OC)cc2CCN1C(=O)OCc1ccc(NC(=O)[C@@H]2CCCN2C(=O)[C@H](C)NC(=O)[C@H](CCC(N)=O)NC(=O)[C@H](CC(C)C)NC(=O)[C@H](CCCCN)NC(=O)[C@H](CO)NC(=O)[C@H](CO)NC(=O)[C@H](Cc2cnc[nH]2)NC(C)=O)cc1`, the toxic dose was 822 nmol (convulsions and death; mouse; intravenous, dose not given, single dose).
`C[C@H](NC(=O)CNC(=O)[C@H](CCC(=O)O)NC(=O)[C@H](CCC(=O)O)NC(=O)[C@H](CC(=O)O)NC(=O)[C@@H]1CCCN1C(=O)[C@H](Cc1ccccc1)NC(=O)[C@H](CS)NC(=O)[C@H](Cc1ccc(O)cc1)NC(=O)CCCNC(=O)CNC(=O)CNC(=O)[C@@H](C)NC(=O)CN)C(=O)N[C@@H](CS)C(=O)N[C@@H](Cc1ccc(O)cc1)C(N)=O` [technetium-99m labelled]: “blood radioactivity remaining” 3.42% (KM mice, blood; intravenous, dose not given, 60 min; relative to: 1 min value).
For `CCCC[C@H](NC(=O)CNC(=O)CNC(=O)CNC(=O)c1ccc(NN)nc1)C(=O)N[C@H]1CC(=O)NCCCC[C@@H](C(N)=O)NC(=O)[C@H](Cc2c[nH]c3ccccc23)NC(=O)[C@H](CCCNC(=N)N)NC(=O)[C@@H](Cc2ccccc2)NC(=O)[C@H](Cc2c[nH]cn2)NC1=O` [technetium-99m labelled], the uptake was 9.78 ± 3.4 %ID/g (C57 mouse, B16/F1 melanoma, tumor; intravenous, 2 h).
The tissue uptake of `N=C(N)NCCC[C@@H]1NC(=O)[C@H](CCCCNC(=O)CCOCCOCCOCCOCCNC(=O)CC[C@H](NC(=O)CCOCCOCCOCCOCCNC(=O)CC[C@H](NC(=O)CN2CCN(CC(=O)O)CCN(CC(=O)O)CCN(CC(=O)O)CC2)C(=O)NCCOCCOCCOCCOCCC(=O)N[C@@H](CCC(=O)NCCOCCOCCOCCOCCC(=O)NCCCC[C@@H]2NC(=O)[C@@H](Cc3ccccc3)NC(=O)[C@H](CC(=O)O)NC(=O)CNC(=O)[C@H](CCCNC(=N)N)NC2=O)C(=O)NCCOCCOCCOCCOCCC(=O)NCCCC[C@@H]2NC(=O)[C@@H](Cc3ccccc3)NC(=O)[C@H](CC(=O)O)NC(=O)CNC(=O)[C@H](CCCNC(=N)N)NC2=O)C(=O)NCCOCCOCCOCCOCCC(=O)NCCCC[C@@H]2NC(=O)[C@@H](Cc3ccccc3)NC(=O)[C@H](CC(=O)O)NC(=O)CNC(=O)[C@H](CCCNC(=N)N)NC2=O)NC(=O)[C@@H](Cc2ccccc2)NC(=O)[C@H](CC(=O)O)NC(=O)CNC1=O` [indium-111 labelled] is reported as 0.7 %ID/g (athymic nude mice U-87 MG xenograft, U-87 MG tumour; intravenous, 1 h, added: RGD2 about 14 mg/kg co-injected).
Under “change of tumour fluorescence”, `CC[C@H]1c2cc3[nH]c4c(c3C)C(=O)[C@H](C(=O)OC)c4c3nc(cc4[nH]c(cc(n2)[C@@H]1C)c(C(C)=O)c4C)[C@@H](C)[C@@H]3CCC(=O)NCC(=O)N[C@H](CC(=O)O)C(=O)N[C@H](CCC(=O)O)C(=O)N[C@@H](C(=O)N[C@H](CC(=O)O)C(=O)NCC(=O)N[C@H](CO)C(=O)NCC(=O)N[C@H](CCCCN)C(N)=O)C(C)C` is recorded as “decreased” (nude mouse KB xenograft; intravenous, 25 nmol, 5 h to 24 h).
`C/C=C(/C)C(=O)O[C@H]1C(C)=C2[C@H]([C@@H]1OC(=O)CCCCCCC)[C@@](C)(OC(C)=O)C[C@H](OC(=O)CCCCCCCCCCCNC(=O)[C@H](CO)NC(=O)[C@@H]1CCCN1C(=O)CNC(=O)[C@@H](NC(=O)[C@H](CCC(=O)O)NC(=O)CNC(=O)[C@H](CCCNC(=N)N)NC(=O)[C@@H](N)CCC(=O)O)[C@@H](C)O)[C@@]1(O)[C@H]2OC(=O)[C@@]1(C)O` gave a t1/2 of roughly 12 h (female nude mouse, MCF7 xenograft, tumour; intravenous, full-length prodrug).
With `CCCC[C@H](NC(=O)CNC(=O)CNC(=O)c1ccc(NN)nc1)C(=O)N[C@H]1CC(=O)NCCCC[C@@H](C(N)=O)NC(=O)[C@H](Cc2c[nH]c3ccccc23)NC(=O)[C@H](CCCNC(=N)N)NC(=O)[C@@H](Cc2ccccc2)NC(=O)[C@H](Cc2c[nH]cn2)NC1=O` [technetium-99m labelled] the uptake ratio was 1.32 (C57 mouse, B16/F1 melanoma; 2 h, added: NDP-MSH blockade; relative to: tumour over lung).
`N=C(N)NCCC[C@@H]1NC(=O)[C@H](CCCCNC(=O)CC[C@H](NC(=O)CCOCCOCCOCCOCCNC(=O)CN2CCN(CC(=O)O)CCN(CC(=O)O)CCN(CC(=O)O)CC2)C(=O)NCCCC[C@@H]2NC(=O)[C@@H](Cc3ccccc3)NC(=O)[C@H](CC(=O)O)NC(=O)CNC(=O)[C@H](CCCNC(=N)N)NC2=O)NC(=O)[C@@H](Cc2ccccc2)NC(=O)[C@H](CC(=O)O)NC(=O)CNC1=O` [indium-111 labelled]: “tumour to tissue ratio” 2.04 ± 0.37 (athymic nude mice, female, U-87 MG glioma xenograft, tumour and lungs; intravenous, 0.5 h; relative to: tumour over lungs).
For `C[C@@H](O)[C@@H]1NC(=O)[C@H](CCCCN)NC(=O)[C@@H](Cc2c[nH]c3ccccc23)NC(=O)[C@H](Cc2ccc(O)cc2)NC(=O)[C@@H](NC(=O)[C@@H](Cc2ccccc2)NC(=O)c2ccc(C[C@H]3CN(CC(=O)O)CCN(CC(=O)O)CCN(CC(=O)O)CCN3CC(=O)O)cc2)CSSC[C@@H](C(=O)N[C@H](CO)[C@@H](C)O)NC1=O` [gallium-67 labelled], the remaining intact was 97.4 ± 0.4% (radio-TLC; mouse plasma; 3 h, 37 °C, 67Ga-labelled).
With `N=C(N)NCCC[C@@H]1NC(=O)[C@H](CCCCNC(=O)CCOCCOCCOCCOCCNC(=O)CN2CCN(CC(=O)O)CCN(CC(=O)O)CCN(CC(=O)O)CC2)NC(=O)[C@@H](Cc2ccccc2)NC(=O)[C@H](CC(=O)O)NC(=O)CNC1=O` [indium-111 labelled] the tissue uptake was 0.74 ± 0.16 %ID/g (athymic nude mice, female, U-87 MG glioma xenograft, U-87 MG tumour; intravenous, 3 µCi, 72 h).
`N=C(N)NCCC[C@@H]1NC(=O)[C@H](CCCCNC(=O)CNC(=O)CNC(=O)CNC(=O)CC[C@H](NC(=O)c2ccc(NN=Cc3ccccc3S(=O)(=O)O)nc2)C(=O)NCC(=O)NCC(=O)NCC(=O)NCCCC[C@@H]2NC(=O)[C@@H](Cc3ccccc3)NC(=O)[C@H](CC(=O)O)NC(=O)CNC(=O)[C@H](CCCNC(=N)N)NC2=O)NC(=O)[C@@H](Cc2ccccc2)NC(=O)[C@H](CC(=O)O)NC(=O)CNC1=O` [technetium-99m labelled] gave a tissue uptake of 2.72 ± 0.33 %ID/g (athymic nu/nu mouse, female, U-87 MG glioma xenograft, muscle; intravenous, 30 min).
With `CSCC[C@H](NC(=O)[C@H](CC(C)C)NC(=O)[C@H](Cc1c[nH]cn1)NC(=O)CNC(=O)[C@@H](NC(=O)[C@H](C)NC(=O)[C@H](Cc1c[nH]c2ccccc12)NC(=O)[C@H](CCC(N)=O)NC(=O)CCCCCNC(=O)CNC(=O)CNC(=O)CNC(=O)CSC(C)=O)C(C)C)C(N)=O` [technetium-99m labelled] the tissue uptake was 0.29 ± 0.02 %ID/g (nude mouse, PC-3 xenograft, bone; 90 min, added: excess unlabelled conjugate).
With `CC1(C)C(/C=C/C=C/C=C2/N(CCCCCC(=O)NCCCC[C@@H]3NC(=O)[C@@H](Cc4ccc(O)cc4)NC(=O)[C@H](CC(=O)O)NC(=O)CNC(=O)[C@H](CCCNC(=N)N)NC3=O)c3ccccc3C2(C)C)=[N+](CCCCn2nnc3c2-c2ccccc2CN(C(=O)CCC(=O)NCCNC(=O)CN(CCN(CC(=O)O)CC(=O)O)CCN(CC(=O)O)CC(=O)O)c2ccccc2-3)c2ccc(S(=O)(=O)[O-])cc21` the log P was -2.55 ± 0.1 (shake-flask; 1-octanol/PBS; pH 7.4, 99mTc-labelled tracer).

For quick reference, copied from above:
With `CSCC[C@H](NC(=O)[C@H](CC(C)C)NC(=O)[C@H](Cc1c[nH]cn1)NC(=O)CNC(=O)[C@@H](NC(=O)[C@H](C)NC(=O)[C@H](Cc1c[nH]c2ccccc12)NC(=O)[C@H](CCC(N)=O)NC(=O)CCCCCNC(=O)CNC(=O)CNC(=O)CNC(=O)CSC(C)=O)C(C)C)C(N)=O` [technetium-99m labelled] the tissue uptake was 0.29 ± 0.02 %ID/g (nude mouse, PC-3 xenograft, bone; 90 min, added: excess unlabelled conjugate).
With `CC1(C)C(/C=C/C=C/C=C2/N(CCCCCC(=O)NCCCC[C@@H]3NC(=O)[C@@H](Cc4ccc(O)cc4)NC(=O)[C@H](CC(=O)O)NC(=O)CNC(=O)[C@H](CCCNC(=N)N)NC3=O)c3ccccc3C2(C)C)=[N+](CCCCn2nnc3c2-c2ccccc2CN(C(=O)CCC(=O)NCCNC(=O)CN(CCN(CC(=O)O)CC(=O)O)CCN(CC(=O)O)CC(=O)O)c2ccccc2-3)c2ccc(S(=O)(=O)[O-])cc21` the log P was -2.55 ± 0.1 (shake-flask; 1-octanol/PBS; pH 7.4, 99mTc-labelled tracer).
